{"data": "Experimental data gathered from unrelated publications", "Nuclear receptor subfamily 2 group C member 2 ligand-binding domain": "Nuclear receptor subfamily 2 group C member 2, ligand-binding domain (Homo sapiens, UniProt P49116)", "XPO1": "Exportin-1 (XPO1, Homo sapiens, UniProt O14980)", "note": "Each line is one published result; not all experiments were run side by side. “And” joins repeats or separate records; there may be more than shown. ± marks the error that the study gave.", "UniProt O14980, sequence (whole entry, looked up)": "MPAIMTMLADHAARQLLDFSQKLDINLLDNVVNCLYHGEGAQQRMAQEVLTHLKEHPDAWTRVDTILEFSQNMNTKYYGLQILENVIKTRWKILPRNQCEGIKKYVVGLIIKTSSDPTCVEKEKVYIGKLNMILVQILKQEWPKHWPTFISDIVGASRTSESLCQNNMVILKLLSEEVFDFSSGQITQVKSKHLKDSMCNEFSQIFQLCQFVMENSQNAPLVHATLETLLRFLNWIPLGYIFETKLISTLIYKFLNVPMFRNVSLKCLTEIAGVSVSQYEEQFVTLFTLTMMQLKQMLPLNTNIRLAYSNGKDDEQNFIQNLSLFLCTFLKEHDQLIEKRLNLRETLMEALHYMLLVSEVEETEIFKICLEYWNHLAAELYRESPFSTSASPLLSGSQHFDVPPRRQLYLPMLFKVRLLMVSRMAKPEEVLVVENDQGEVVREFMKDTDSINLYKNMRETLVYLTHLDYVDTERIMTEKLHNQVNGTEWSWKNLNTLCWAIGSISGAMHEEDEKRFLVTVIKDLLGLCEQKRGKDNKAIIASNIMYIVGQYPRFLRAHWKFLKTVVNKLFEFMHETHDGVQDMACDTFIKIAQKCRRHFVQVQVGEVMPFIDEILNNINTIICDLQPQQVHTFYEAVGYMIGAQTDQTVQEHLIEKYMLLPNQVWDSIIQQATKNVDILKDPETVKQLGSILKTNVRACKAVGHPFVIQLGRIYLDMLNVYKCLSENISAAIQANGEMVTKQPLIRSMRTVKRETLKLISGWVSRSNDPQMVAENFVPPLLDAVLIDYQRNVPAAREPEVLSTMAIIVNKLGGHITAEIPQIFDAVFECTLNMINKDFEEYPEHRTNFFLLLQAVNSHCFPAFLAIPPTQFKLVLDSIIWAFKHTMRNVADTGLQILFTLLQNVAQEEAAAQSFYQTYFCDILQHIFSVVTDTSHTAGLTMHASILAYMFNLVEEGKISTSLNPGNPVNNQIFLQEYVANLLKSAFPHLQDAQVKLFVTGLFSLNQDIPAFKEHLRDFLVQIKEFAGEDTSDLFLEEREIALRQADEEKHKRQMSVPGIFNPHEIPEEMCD", "UniProt Q16774, sequence (whole entry, unmodified, looked up)": "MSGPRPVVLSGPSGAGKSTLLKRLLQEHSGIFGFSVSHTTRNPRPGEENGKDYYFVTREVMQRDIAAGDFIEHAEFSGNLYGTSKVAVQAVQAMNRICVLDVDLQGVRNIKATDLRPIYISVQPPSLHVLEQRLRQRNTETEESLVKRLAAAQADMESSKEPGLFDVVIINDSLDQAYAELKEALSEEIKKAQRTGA", "UniProt P51575, sequence (whole entry, unmodified, looked up)": "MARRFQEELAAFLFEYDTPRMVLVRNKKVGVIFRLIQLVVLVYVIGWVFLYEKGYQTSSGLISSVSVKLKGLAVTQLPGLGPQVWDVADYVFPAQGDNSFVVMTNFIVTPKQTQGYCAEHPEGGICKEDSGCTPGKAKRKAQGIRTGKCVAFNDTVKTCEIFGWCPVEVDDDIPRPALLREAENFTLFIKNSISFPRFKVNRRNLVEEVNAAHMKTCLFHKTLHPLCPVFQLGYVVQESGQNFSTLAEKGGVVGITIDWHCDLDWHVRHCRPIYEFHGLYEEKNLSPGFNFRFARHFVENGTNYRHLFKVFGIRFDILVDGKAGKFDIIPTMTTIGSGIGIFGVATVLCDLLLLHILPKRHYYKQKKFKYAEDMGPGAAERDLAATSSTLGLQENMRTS", "UniProt P49116, sequence (whole entry, looked up)": "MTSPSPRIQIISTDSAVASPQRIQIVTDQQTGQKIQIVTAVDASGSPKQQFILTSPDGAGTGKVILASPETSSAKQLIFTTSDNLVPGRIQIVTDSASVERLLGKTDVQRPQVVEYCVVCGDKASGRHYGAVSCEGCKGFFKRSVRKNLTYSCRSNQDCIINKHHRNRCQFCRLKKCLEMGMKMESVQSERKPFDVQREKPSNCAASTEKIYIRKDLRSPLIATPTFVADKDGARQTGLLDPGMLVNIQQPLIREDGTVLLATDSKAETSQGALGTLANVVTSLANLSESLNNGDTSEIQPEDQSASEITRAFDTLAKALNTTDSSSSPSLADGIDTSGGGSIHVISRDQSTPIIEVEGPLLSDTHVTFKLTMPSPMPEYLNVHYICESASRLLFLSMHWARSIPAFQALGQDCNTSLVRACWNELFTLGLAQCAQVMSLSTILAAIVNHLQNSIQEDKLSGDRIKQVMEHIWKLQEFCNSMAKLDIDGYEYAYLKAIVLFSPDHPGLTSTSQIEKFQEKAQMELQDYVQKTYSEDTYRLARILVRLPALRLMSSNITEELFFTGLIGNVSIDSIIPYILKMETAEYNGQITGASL", "UniProt P12763, sequence (whole entry, looked up)": "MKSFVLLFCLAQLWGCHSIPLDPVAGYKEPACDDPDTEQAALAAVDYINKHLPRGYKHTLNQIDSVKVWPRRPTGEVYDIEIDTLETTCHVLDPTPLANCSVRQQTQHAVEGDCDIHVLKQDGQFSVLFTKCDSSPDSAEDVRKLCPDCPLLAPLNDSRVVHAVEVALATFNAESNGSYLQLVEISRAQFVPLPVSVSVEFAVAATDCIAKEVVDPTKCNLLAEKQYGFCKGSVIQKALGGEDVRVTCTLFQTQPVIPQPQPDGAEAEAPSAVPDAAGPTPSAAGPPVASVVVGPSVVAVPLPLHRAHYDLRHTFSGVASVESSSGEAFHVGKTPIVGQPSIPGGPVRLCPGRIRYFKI", "UniProt P04746, sequence (whole entry, looked up)": "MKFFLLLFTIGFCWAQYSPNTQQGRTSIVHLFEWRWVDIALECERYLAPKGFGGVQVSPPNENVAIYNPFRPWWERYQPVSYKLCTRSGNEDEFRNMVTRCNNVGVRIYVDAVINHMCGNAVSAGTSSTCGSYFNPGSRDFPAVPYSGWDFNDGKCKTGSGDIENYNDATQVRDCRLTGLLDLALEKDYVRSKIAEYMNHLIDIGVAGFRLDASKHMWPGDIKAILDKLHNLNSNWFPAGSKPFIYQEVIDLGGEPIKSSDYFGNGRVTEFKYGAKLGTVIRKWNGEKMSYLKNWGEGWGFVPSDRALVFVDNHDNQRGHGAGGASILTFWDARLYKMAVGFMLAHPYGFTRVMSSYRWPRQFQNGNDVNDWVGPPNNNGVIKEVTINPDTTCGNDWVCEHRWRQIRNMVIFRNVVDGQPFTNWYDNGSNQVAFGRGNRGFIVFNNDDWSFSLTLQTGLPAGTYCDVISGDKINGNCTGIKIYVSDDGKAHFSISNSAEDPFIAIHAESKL", "UniProt P35560, sequence (whole entry, looked up)": "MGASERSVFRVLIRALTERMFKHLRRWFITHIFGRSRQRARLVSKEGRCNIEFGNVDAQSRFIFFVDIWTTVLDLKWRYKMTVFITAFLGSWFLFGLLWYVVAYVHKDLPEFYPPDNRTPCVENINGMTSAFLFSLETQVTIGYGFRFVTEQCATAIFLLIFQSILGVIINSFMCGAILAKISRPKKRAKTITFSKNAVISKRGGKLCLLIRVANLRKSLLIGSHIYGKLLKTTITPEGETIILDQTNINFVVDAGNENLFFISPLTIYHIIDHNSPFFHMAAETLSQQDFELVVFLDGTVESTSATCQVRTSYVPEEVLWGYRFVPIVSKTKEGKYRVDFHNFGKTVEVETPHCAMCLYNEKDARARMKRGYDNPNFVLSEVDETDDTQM", "UniProt O94921, sequence (whole entry, looked up)": "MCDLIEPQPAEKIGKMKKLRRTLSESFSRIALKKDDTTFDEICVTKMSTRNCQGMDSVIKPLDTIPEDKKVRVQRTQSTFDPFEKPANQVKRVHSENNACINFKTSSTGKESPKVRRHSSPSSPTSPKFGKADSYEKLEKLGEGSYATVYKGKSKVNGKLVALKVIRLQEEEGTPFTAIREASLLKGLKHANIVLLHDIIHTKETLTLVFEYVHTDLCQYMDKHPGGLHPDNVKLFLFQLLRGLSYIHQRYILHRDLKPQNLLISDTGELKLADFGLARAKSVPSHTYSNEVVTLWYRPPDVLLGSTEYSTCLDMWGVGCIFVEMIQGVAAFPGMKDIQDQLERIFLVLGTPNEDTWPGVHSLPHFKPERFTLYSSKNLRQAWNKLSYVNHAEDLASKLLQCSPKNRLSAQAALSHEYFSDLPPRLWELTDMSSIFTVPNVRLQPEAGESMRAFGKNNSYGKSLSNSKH", "UniProt P08908, sequence (whole entry, looked up)": "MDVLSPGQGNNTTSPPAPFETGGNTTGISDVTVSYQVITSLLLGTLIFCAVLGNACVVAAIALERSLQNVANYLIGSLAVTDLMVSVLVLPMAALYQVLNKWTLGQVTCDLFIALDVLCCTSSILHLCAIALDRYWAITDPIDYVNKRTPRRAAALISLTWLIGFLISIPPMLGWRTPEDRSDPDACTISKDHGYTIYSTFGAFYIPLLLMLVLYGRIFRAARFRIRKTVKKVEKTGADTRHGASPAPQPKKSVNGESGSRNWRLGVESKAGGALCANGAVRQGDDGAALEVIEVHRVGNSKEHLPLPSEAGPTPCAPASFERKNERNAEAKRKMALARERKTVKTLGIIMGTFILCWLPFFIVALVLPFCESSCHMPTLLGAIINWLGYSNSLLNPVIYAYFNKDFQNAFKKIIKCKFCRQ"}
{"SMILES": "Nc1ncnc2c1ncn2[C@@H]1O[C@H](COP(=O)(O)OP(=O)(O)OP(=O)(O)O)[C@@H](O)[C@H]1O", "target": "ATP-sensitive inward rectifier potassium channel 1 (Rattus norvegicus, UniProt P35560)", "test": "inside-out patch clamp", "system": "renal principal cells, rat", "setting": "0.4 mM", "quantity": "mean open time", "value": "25 ms"}
{"SMILES": "CC(C)C[C@@H]1NC(=O)[C@H](C(C)C)NC(=O)CNC(=O)[C@H](CC(N)=O)NC(=O)[C@@H]2CCCN2C(=O)[C@H](Cc2ccc(O)cc2)NC(=O)[C@H](CCCNC(=N)N)NC(=O)[C@H](Cc2ccccc2)NC(=O)[C@@H](NC(=O)[C@H](CCCCN)NC(=O)[C@H](C)NC(=O)[C@H](CO)NC(=O)[C@H](C)NC(=O)[C@@H](N)Cc2ccc(O)cc2)CSSC[C@@H](C(=O)N[C@H](C(N)=O)[C@@H](C)O)NC(=O)[C@H](C)NC1=O", "target": "Alpha-2-HS-glycoprotein, asialo (AHSG, Bos taurus, UniProt P12763)", "test": "ITC", "setting": "concentration not given, together with: asialofetuin", "quantity": "binding enthalpy", "value": "-2.38 kcal/mol"}
{"SMILES": "COC(=O)CCc1ccc(OCC(O)CNC(C)C)cc1 (stereo not drawn)", "target": "Nuclear receptor subfamily 2 group C member 2 ligand-binding domain", "test": "SPR imaging", "setting": "600 nM", "quantity": "koff", "value": "2.8e-07 s⁻¹"}
{"SMILES": "Nc1nc2c(ncn2[C@@H]2O[C@H](COP(=O)(O)O)[C@@H](O)[C@H]2O)c(=O)[nH]1", "target": "GUK1 (Homo sapiens, UniProt Q16774, R44A)", "test": "enzyme activity, NADH-coupled", "setting": "31.25 µM", "quantity": "reaction rate", "value": "-0.0375 s⁻¹ and -0.897 s⁻¹ and -0.503 s⁻¹"}
{"SMILES": "CC[C@@H]1[C@H](F)C(=O)N[C@@H]1COc1nccc2cc(C(N)=O)c(OC)cc12", "target": "CDK14 (Homo sapiens, UniProt O94921)", "test": "ATP probe binding, KiNativ profiling, refers to: Lys2 probe site", "system": "THP-1 cell lysate", "setting": "0.04 mM", "quantity": "inhibition", "value": "5.5%"}
{"SMILES": "O=C(COP(=O)(O)O)[C@@H](O)[C@H](O)[C@H](O)COP(=O)(O)O", "target": "XPO1", "test": "thermal proteome profiling", "system": "HepG2 cell lysate", "setting": "concentration not given, 57 over 37 °C, mean", "how to read": "reference: compound over control", "quantity": "thermal stability ratio", "value": 0.589}
{"SMILES": "O=C1OC(c2ccccc2)=N/C1=C\\c1ccc(O)cc1", "target": "Pancreatic alpha-amylase (Homo sapiens, UniProt P04746)", "test": "inhibitor, Lineweaver-Burk", "setting": "100 ppm, together with: starch substrate", "quantity": "Km", "value": "1400 µM"}
{"SMILES": "CC1=C(/C=C/C(C)=C/C=C/C(C)=C/C=O)C(C)(C)CCC1", "target": "Rhodopsin (RHO, Bos taurus, UniProt P02699, G270F)", "test": "retinal entry, Trp FRET", "system": "lipid bicelles", "setting": "28 °C, G270F mutant", "how to read": "reference: wild-type rhodopsin", "quantity": "relative kon", "value": "1 ± 0.13"}
{"SMILES": "CC(Nc1nc(N2CCCC2)nc2ccccc12)c1ccccc1 (stereo not drawn)", "target": "XPO1", "test": "nuclear export, high content imaging", "system": "HeLa Kyoto reporter", "setting": "0.03 µM, 2 h", "quantity": "cells with nuclear reporter", "value": "6.02% and 3.29% and 2.74%"}
{"SMILES": "CC1CCc2c(N3CCC(O)CC3)c(F)cc3c(=O)c(C(=O)O)cn1c23 (stereo not drawn)", "target": "Nuclear receptor subfamily 2 group C member 2 ligand-binding domain", "test": "SPR imaging", "setting": "600 nM", "quantity": "koff", "value": "2.94e-07 s⁻¹"}
{"SMILES": "Nc1ncnc2c1ncn2[C@@H]1O[C@H](COP(=O)(O)CP(=O)(O)OP(=O)(O)O)[C@@H](O)[C@H]1O", "target": "P2X purinoceptor 1 (P2RX1, Homo sapiens, UniProt P51575, K215A)", "test": "saturation binding", "system": "HEK293", "setting": "13 nM", "quantity": "specific binding", "value": "1290 CCPM and 1730 CCPM"}
{"SMILES": "COc1cccc(OC[C@@H]2CN(CCN3CCc4ccccc43)CCO2)c1", "target": "HTR1A (Homo sapiens, UniProt P08908)", "test": "radioligand binding", "setting": "concentration not given, together with: [3H]8-OH-DPAT", "quantity": "inhibition", "value": "80.6%"}
{"SMILES": "Cn1cc(-c2cnc3ccc(NC(=O)Nc4ccc(F)c(Br)c4)cc3n2)cn1", "target": "IKBKB (Homo sapiens, UniProt O14920)", "test": "kinase binding, KiNativ profiling, refers to: Lys1 peptide", "system": "PANC-1 lysate", "setting": "2.5 µM", "quantity": "inhibition", "value": "9.5%"}
{"SMILES": "NCCS(=O)(=O)O", "target": "SLC6A6 (Homo sapiens, UniProt P31641, Y138A)", "test": "binding, microscale thermophoresis", "setting": "61 nM, room temperature, together with: 50 nM labelled protein", "how to read": "higher = more binding", "quantity": "normalised MST signal", "value": -0.00695}
{"SMILES": "Cc1cccc(N2CC(C(=O)O)CC2=O)c1 (stereo not drawn)", "target": "E3 SUMO-protein ligase PIAS1 (PIAS1, Homo sapiens, UniProt O75925)", "test": "binding, affinity selection mass spectrometry", "how to read": "reference: other proteins in batch", "quantity": "log fold enrichment", "value": -0.0238}
{"note": "Excerpt of the above:"}
{"SMILES": "O=C1OC(c2ccccc2)=N/C1=C\\c1ccc(O)cc1", "target": "Pancreatic alpha-amylase (Homo sapiens, UniProt P04746)", "test": "inhibitor, Lineweaver-Burk", "setting": "100 ppm, together with: starch substrate", "quantity": "Km", "value": "1400 µM"}
{"SMILES": "CC1=C(/C=C/C(C)=C/C=C/C(C)=C/C=O)C(C)(C)CCC1", "target": "Rhodopsin (RHO, Bos taurus, UniProt P02699, G270F)", "test": "retinal entry, Trp FRET", "system": "lipid bicelles", "setting": "28 °C, G270F mutant", "how to read": "reference: wild-type rhodopsin", "quantity": "relative kon", "value": "1 ± 0.13"}
